Measurements collected from several papers.
Lines come from different studies, so protocols differ. ± marks the error that the study gave.
B1: UGT1A9 (Homo sapiens, UniProt O60656); chain GKLLVVPMDGSHWFTMRSVVEKLILRGHEVVVVMPEVSWQLGRSLNCTVKTYSTSYTLEDLDREFKAFAHAQWKAQVRSIYSLLMGSYNDIFDLFFSNCRSLFKDKKLVEYLKESSFDAVFLDPFDNCGLIVAKYFSLPSVVFARGILCHYLEEGAQCPAPLSYVPRILLGFSDAMTFKERVRNHIMHLEEHLLCHRFFKNALEIASEILQTPVTEYDLYSHTSIWLLRTDFVLDYPKPVMPNMIFIGGINCHQGKPLPMEFEAYINASGEHGIVVFSLGSMVSEIPEKKAMAIADALGKIPQTVLWRYTGTRPSNLANNTILVKWLPQNDLLGHPMTRAFITHAGSHGVYESICNGVPMVMMPLFGDQMDNAKRMETKGAGVTLNVLEMTSEDLENALKAVINDKSYKENIMRLSSLHKDRPVEPLDLAVFWVEFVMRHKGAPHLRPAAHDLTWYQYHSLDVIGFLLAVVLTVAFITFKCCAYGYRKCLGKKGRVKKAHKSKTH

`CISD1 soluble cytoplasmic domain (Homo sapiens, UniProt Q9NZ45)` has a pKa of > 11.5 (optical potentiometric redox titration, item: His87; cluster reduced).
`ksi D40N/D103L (Pseudomonas putida)` gave a pKa of 8.2 (UV-vis, item: Tyr57; 25 °C).
`CISD1 K55E (Homo sapiens)` gave a pKa of 9.6 (UV-vis, item: His87; NaCl 100 mM, cluster oxidised).
`PCSK1 propeptide domain (Homo sapiens, UniProt P29120)` gave a pKa of 5.97 (mass spectrometry, item: His75; apparent, histidine H/D exchange, pepsin digest).
For `ahpC (Salmonella typhimurium, UniProt P0A251)`, the pKa was 8.74 (chemical modification, mass spectrometry, item: Cys165; ammonium sulfate 100 mM, numbering of the source).
With `emrE E14D (Escherichia coli)` the pKa was 7.3 (NMR, item: His110; 45 °C, NaCl 20 mM).
With `WT1 zinc finger 4 (Homo sapiens, UniProt P19544)` the pKa was 7.9 (NMR, item: Cys10; 288 K, KCl 10 mM, apo, unfolded, reduced, numbering of the source).
`nuc G50F/V51N/P117G/H124L/S128A/del44-49/L38D/E122Q (Staphylococcus aureus)` has a pKa of 5.8 (NMR, item: His121; 298 K, KCl 100 mM, numbering of the source).
`PBP1 mature (Amyelois transitella)` gave a pKa of > 7 (NMR, item: His69; 25 °C, free protein; not delipidated).
With `Txnrd2 mitochondrial del C-terminal eight residues (Mus musculus)` the pKa was 5.02 (UV-vis, item: Cys57; NaCl 300 mM, numbering of the source, with: NADPH 250 µM).
The pKa of `PRL (Homo sapiens, UniProt P01236)` is reported as 6.64 (NMR, item: His27; 35 °C, 25 mM NaCl, microscopic; neighbours unprotonated, numbering of the source).
With `ksi D40N/M105A (Pseudomonas putida)` the pKa was 6.3 (UV-vis, item: Tyr57; 25 °C).
For `B1 (UGT1A9)`, the Km was 0.23 µM (COc1cc(O)c2c(=O)c(O)c(-c3ccc(O)c(O)c3)oc2c1; steady-state kinetics; pH 7.4, 37 °C).
`nuc G50F/V51N/P117G/H124L/S128A/del44-49/L38K (Staphylococcus aureus)` gave a pKa of 6.5 (NMR, item: His8; 298 K, KCl 100 mM, numbering of the source).
The pKa of `ketosteroid isomerase D40N (Pseudomonas putida)` is reported as 6.65 (UV-vis, item: Tyr57; apparent, D2O, apo enzyme).
The pKa of `UBE2G2 (Homo sapiens, UniProt P60604)` is reported as 6.25 (NMR, item: His94; 295 K).
With `ksi D40Q/D103N (Pseudomonas putida)` the pKa was 7.9 (UV-vis, item: Tyr57; 25 °C).
`iscU apo (Escherichia coli, UniProt P0ACD4)` has a pKa of 7 (NMR titration, item: His10; 25 °C, NaCl 150 mM, D-state, averaged, apo).
With `ksi Y16A/D40N/D103N (Pseudomonas putida)` the pKa was > 10 (UV-vis, item: Tyr57; 25 °C).
`CYC1 K72A/K79G/C102S, Met80 sulfoxide (Saccharomyces cerevisiae)` gave a pKa of 6.5 (UV-vis, item: Lys73; numbering of the source).
The pKa of `ksi D40N/F56A (Pseudomonas putida)` is reported as 6.9 (UV-vis, item: Tyr57; 25 °C).
`nuc G50F/V51N/P117G/H124L/S128A/del44-49/L38E (Staphylococcus aureus)` gave a pKa of 6.5 (NMR, item: His8; 298 K, KCl 100 mM, numbering of the source).
`ORF56 (Sulfolobus islandicus, UniProt Q54323)` gave a pKa of 9.66 (NMR, item: Lys6; free native homodimer, low salt).
For `nuc G50F/V51N/P117G/H124L/S128A/del44-49/E122Q (Staphylococcus aureus)`, the pKa was 5.3 (NMR, item: His121; 298 K, KCl 100 mM, numbering of the source).
With `CRYGD (Homo sapiens, UniProt P07320)` the pKa was 6.69 (NMR, item: His15; 25 °C, numbering of the source).
The pKa of `rnpA F107W (Bacillus subtilis)` is reported as 5.99 (NMR, item: His22; 25 °C, 20 ± 1 mM, unfolded state, no sulfate, numbering of the source).
For `nuc G50F/V51N/P117G/H124L/S128A/del44-49 (Staphylococcus aureus)`, the pKa was 5.4 (NMR, item: His121; 298 K, KCl 100 mM, numbering of the source).
`ksi D40E/D103N (Pseudomonas putida)` gave a pKa of > 10 (UV-vis, item: Tyr57; 25 °C).
The pKa of `CRYGD P23T (Homo sapiens)` is reported as 5.97 (NMR, item: His65; 25 °C, numbering of the source).
For `ksi D40N/F86A (Pseudomonas putida)`, the pKa was 6.3 (UV-vis, item: Tyr57; 25 °C).
`proteorhodopsin, retinal (uncultured gamma-proteobacterium EBAC31A08, UniProt Q9F7P4)` gave a pKa of 6.5 (UV-vis, item: Asp97; NaCl 100 mM, large DMPC nanodisc, monomeric).
The pKa of `N-acetyl-L-histidine methylamide, N-acetyl, C-terminal N-methylamide` is reported as 6.52 (NMR, item: His1; 25 °C, Na2SO4 20 mM).
`ksi D40E/F56A/D103N (Pseudomonas putida)` has a pKa of 9.8 (UV-vis, item: Tyr57; 25 °C).
With `nuc G50F/V51N/P117G/H124L/S128A/del44-49/L38D (Staphylococcus aureus)` the pKa was 5.7 (NMR, item: His121; 298 K, KCl 100 mM, numbering of the source).
